Assay results pooled from the literature.
Converted amounts (≈) assume the structure as drawn.
Chain of UniProt Q8TD08 (whole entry, looked up): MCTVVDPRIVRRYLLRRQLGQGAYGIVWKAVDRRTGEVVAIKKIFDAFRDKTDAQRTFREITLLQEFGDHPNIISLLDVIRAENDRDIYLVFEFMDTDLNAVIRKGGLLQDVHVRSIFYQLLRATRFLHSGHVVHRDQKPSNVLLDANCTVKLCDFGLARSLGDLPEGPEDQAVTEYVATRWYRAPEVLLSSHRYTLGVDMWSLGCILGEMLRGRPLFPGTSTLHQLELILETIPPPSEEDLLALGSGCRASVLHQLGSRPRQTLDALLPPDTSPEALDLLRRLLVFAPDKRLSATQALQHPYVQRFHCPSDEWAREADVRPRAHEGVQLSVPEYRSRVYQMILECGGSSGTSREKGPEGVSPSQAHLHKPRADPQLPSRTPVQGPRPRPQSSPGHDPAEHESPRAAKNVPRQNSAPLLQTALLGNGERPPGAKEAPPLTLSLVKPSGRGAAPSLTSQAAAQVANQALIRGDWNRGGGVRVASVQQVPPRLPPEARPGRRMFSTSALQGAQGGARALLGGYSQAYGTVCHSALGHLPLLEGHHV
Chain of UniProt O75460 (whole entry, looked up): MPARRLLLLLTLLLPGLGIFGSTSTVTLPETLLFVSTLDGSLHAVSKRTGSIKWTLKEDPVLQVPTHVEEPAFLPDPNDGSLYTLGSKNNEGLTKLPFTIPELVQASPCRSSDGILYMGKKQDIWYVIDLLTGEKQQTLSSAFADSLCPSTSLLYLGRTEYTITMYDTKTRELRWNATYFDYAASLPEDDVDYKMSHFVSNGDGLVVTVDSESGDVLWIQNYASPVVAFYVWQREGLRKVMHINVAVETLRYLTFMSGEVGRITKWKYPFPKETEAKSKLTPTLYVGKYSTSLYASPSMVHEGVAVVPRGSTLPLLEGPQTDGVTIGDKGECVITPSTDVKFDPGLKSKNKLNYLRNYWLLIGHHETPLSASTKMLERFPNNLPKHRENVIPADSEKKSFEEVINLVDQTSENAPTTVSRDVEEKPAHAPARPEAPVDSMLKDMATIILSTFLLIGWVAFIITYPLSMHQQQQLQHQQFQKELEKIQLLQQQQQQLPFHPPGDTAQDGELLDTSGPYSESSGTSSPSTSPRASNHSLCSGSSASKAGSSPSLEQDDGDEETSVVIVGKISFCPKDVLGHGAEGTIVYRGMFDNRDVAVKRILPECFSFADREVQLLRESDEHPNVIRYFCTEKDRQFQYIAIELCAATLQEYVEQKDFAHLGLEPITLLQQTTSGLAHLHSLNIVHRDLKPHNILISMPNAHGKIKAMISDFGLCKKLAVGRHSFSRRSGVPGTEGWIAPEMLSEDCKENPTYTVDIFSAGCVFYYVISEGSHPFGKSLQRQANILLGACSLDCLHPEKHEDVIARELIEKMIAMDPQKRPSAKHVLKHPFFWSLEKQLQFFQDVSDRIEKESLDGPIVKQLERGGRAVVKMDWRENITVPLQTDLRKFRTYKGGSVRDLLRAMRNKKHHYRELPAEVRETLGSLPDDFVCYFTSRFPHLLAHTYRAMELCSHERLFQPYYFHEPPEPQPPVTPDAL

C#Cc1cccc(O)c1C=NNC(=O)c1ccc(Br)c(Br)c1
MIC80 (Cryptococcus neoformans; microbial growth, broth dilution; pH 7.4): 0.06 µg/mL (≈ 0.142 µM)

Cc1ccc(NC(=O)c2sc3nc(-c4ccccc4)cc(C(F)(F)F)c3c2N)cc1
IC50 (Mycobacterium tuberculosis; microbial growth; H37RV): > 100 µM

O=C(Nc1cccc(CN2CCN(C(=O)c3cccc(Cl)c3)CC2)c1)c1cccs1
IC50 (Dihydroorotate dehydrogenase (quinone), mitochondrial (PFF0160c, Plasmodium falciparum, UniProt Q08210); enzyme activity, inhibitor, absorbance): 1.87 µM

[2H]c1c([2H])c([C@]2([2H])CCCN2C(=O)C(C)(C)Oc2ccc3cn[nH]c3c2)c([2H])c([2H])c1C([2H])([2H])[2H]
remaining binding (Mitogen-activated protein kinase 15 (MAPK15, Homo sapiens, UniProt Q8TD08); binding, competition with immobilised ligand; 1 µM): 76%

COc1ccc(-c2cc(C(F)(F)F)c3c(N)c(C(=O)NC4COC4)sc3n2)cc1
IC50 (Mycobacterium tuberculosis; microbial growth; H37RV): > 100 µM

COC(=O)c1cc(-c2cccc(NC(=S)Nc3cccc(Cl)c3)c2)on1
MIC (Pseudomonas aeruginosa; microbial growth, broth dilution; ATCC27853): > 64 µg/mL

COc1ccccc1C1CN(CCNC(=O)c2nc(C)c[nH]2)Cc2ccccc2O1 (stereo not shown)
IC50 (Dihydroorotate dehydrogenase (quinone), mitochondrial (PFF0160c, Plasmodium falciparum, UniProt Q08210, E182D); enzyme activity, inhibitor, absorbance): > 10 µM

COc1ccc(-c2cc(C(F)(F)F)c3c(N)c(C(=O)NC45CC6CC(CC(C6)C4)C5)sc3n2)cc1
IC50 (Mycobacterium tuberculosis; microbial growth; H37RV): 0.76 µM

O=c1cc(CSc2ccc(N=Cc3ccc(C(F)(F)F)cc3)cc2)occ1O
IC50 (DPPH scavenging, absorbance; 30 min): 42.3 µM

COc1ccc(-c2cc(C(F)(F)F)c3c(N)c(C(=O)NC4CC5(C4)CN(C(=O)OC(C)(C)C)C5)sc3n2)cc1
IC50 (Mycobacterium tuberculosis; microbial growth; H37RV): > 50 µM

COC(=O)c1cc(-c2cccc(NC(=S)Nc3ccccc3Cl)c2)on1
MIC (Mycobacteroides chelonae; microbial growth, broth dilution; ATCC35752; 48 h): > 64 µg/mL

CCOC(=O)C1=C[C@@H](OC(CC)CC)[C@H](NC(C)=O)[C@@H](N)C1
inhibition (Human coronavirus 229E; cytopathic effect; A549; 25 µM): 67%

C#Cc1ccc(C=NNC(=O)c2ccc(Br)c(Br)c2)c(O)c1
MIC80 (Cryptococcus neoformans; microbial growth, broth dilution; pH 7.4): 0.007 µg/mL (≈ 0.0166 µM)

COc1cnc(OC)n2nc(NS(=O)(=O)c3c(OCC(F)F)cccc3C(F)(F)F)nc12
inhibition (HaCaT; cell growth or viability, CCK-8; 100 µM, 72 h): 2.19%

C#Cc1cccc(C=NNC(=O)c2ccc(Br)cc2)c1O
MIC80 (Cryptococcus neoformans; microbial growth, broth dilution; pH 7.4): 0.007 µg/mL (≈ 0.0204 µM)

COc1ccc(-c2ccc3c(N)c(C(=O)N4CCOCC4)sc3n2)cc1
IC50 (Mycobacterium tuberculosis; microbial growth; H37RV): > 100 µM

O=c1cc(CSc2ccc(N=Cc3ccccc3F)cc2)occ1O
IC50 (DPPH scavenging, absorbance; 30 min): 52.2 µM

COC(=O)c1cc(-c2cccc(NC(=O)Nc3ccc(Cl)c(C(F)(F)F)c3)c2)on1
MIC (Mycolicibacterium fortuitum; microbial growth, broth dilution; ATCC6841; 48 h): > 64 µg/mL

COc1ccc(-c2cc(C(F)(F)F)c3c(N)c(C(=O)NC4CC4)sc3n2)cc1
IC50 (Mycobacterium tuberculosis; microbial growth; H37RV): > 100 µM

N.N.[Cl][Pt][Cl]
GI50 (HeLa; cell growth or viability, MTT): 2.64 µM

O=c1cc(CSc2ccc(N=Cc3cccc(Cl)c3)cc2)occ1O
IC50 (DPPH scavenging, absorbance; 30 min): 97.5 µM

Nc1ncc(-c2nc(N3CCOCC3)nc(N3CCOCC3)n2)c(C(F)F)n1
remaining binding (Tyrosine-protein kinase ABL1, phosphorylated (ABL1, Homo sapiens, UniProt P00519, T315I); binding, competition with immobilised ligand; 10 µM): 64%

O=C(Nc1cccc(-c2cc(C(=O)O)no2)c1)Nc1ccc(Cl)c(Cl)c1
MIC (Mycolicibacterium fortuitum; microbial growth, broth dilution; ATCC6841; 48 h): > 64 µg/mL

Cc1cccc(CSc2nccc(OCCOc3cc(=O)oc4ccccc34)n2)c1
inhibition (Human coronavirus 229E; cytopathic effect; A549; 3.13 µM): 20.4%

C#Cc1ccc(O)c(C=NNC(=O)c2ccc(Br)c(Br)c2)c1
MFC (Cryptococcus neoformans; microbial killing): 0.5 µg/mL

CC(C)(C)c1cccc(C=Nc2ccc(SCc3cc(=O)c(O)co3)cc2)c1
IC50 (DPPH scavenging, absorbance; 30 min): 37.2 µM

C#Cc1cccc(C(=O)NN=Cc2cc(C#C)ccc2O)c1
MIC80 (Cryptococcus neoformans; microbial growth, broth dilution; pH 7.4): 0.12 µg/mL (≈ 0.416 µM)

COc1ccc(-c2cc(C(F)(F)F)c3c(N)c(C(=O)NC45CC(C4)C5)sc3n2)cc1
IC50 (Mycobacterium tuberculosis; microbial growth; H37RV): > 50 µM

N.N.[Cl][Pt][Cl]
IC50 (OCI-Ly7; cell growth or viability, ATP luminescence; 72 h): 6.54 µM

COC(=O)c1cc(-c2cccc(NC(=O)Nc3ccc(Cl)cc3Cl)c2)on1
MIC (Pseudomonas aeruginosa; microbial growth, broth dilution; ATCC27853): > 64 µg/mL

CCNC(=O)c1sc2nc(-c3ccc(Cl)cc3Cl)cc(C(F)(F)F)c2c1N
IC50 (Mycobacterium tuberculosis; microbial growth; H37RV): > 100 µM

CCCCCCNC(=S)Nc1cccc(-c2cc(C(=O)OC)no2)c1
MIC (Mycolicibacterium fortuitum; microbial growth, broth dilution; ATCC6841; 48 h): > 64 µg/mL

Cc1cccc2c(CNCC3(N4CCCC4)COC3)c[nH]c12
viability (A 172; cell growth or viability; 30 µM, 48 h): 52.4%

COC(=O)c1cc(-c2cccc(NC(=O)Nc3ccc(Cl)c(Cl)c3)c2)on1
MIC (Mycolicibacterium fortuitum; microbial growth, broth dilution; ATCC6841; 48 h): > 64 µg/mL

OC(Cn1cncn1)(Cn1cncn1)c1ccc(F)cc1F
MFC (Candida tropicalis; microbial killing, broth dilution; CGMCC2; 48 h): 32 µM

Cc1nn(C)cc1-c1nc2c(N3CCN(Cc4ccc(Cl)cc4)CC3)c(Cl)cnc2[nH]1
remaining binding (Serine/threonine-protein kinase/endoribonuclease IRE1 (ERN1, Homo sapiens, UniProt O75460); binding, competition with immobilised ligand; 1 µM): 83%

Nc1ncnc2c([C@@H]3N[C@H](CO)[C@@H](O)[C@H]3O)c[nH]c12
inhibition (unidentified influenza virus; viral replication, inhibitor; MDCK; 9.5 µM): 30.3%

CN1C(=O)C(C2C3=C(CC(C)(C)CC3=O)Oc3c(O)cccc32)C(=O)N(C)C1=O (stereo not shown)
IC20 (3T3-L1; cell growth or viability, MTT; 72 h): 27.4 µg/mL (≈ 68.8 µM)

COC(=O)c1cc(-c2cccc(NC(=S)Nc3ccc(F)cc3F)c2)on1
MIC (Mycolicibacterium fortuitum; microbial growth, broth dilution; ATCC6841; 48 h): 16 µg/mL (≈ 41.1 µM)

O=c1cc(CSc2ccc(N=Cc3ccccc3Cl)cc2)occ1O
IC50 (DPPH scavenging, absorbance; 30 min): 88.1 µM
